Experimental data pooled from the literature.
Compare with care: the assays were run in different laboratories. Values joined by “and” are separate records of one study, mostly repeats; a detail may differ. ± gives the spread as reported.

Cn1cc(C(N)=O)ccc1=O
serum protein binding (ultrafiltration; normal rat serum; 37 °C): 70 ± 9%

CC(=O)N1CC(C(=O)Nc2ccc([C@H]3[C@@H](F)[C@@H](F)C[C@@H](F)[C@H]3F)cc2)C1
hepatic clearance (hepatocyte stability; cryopreserved rat hepatocytes; 1 µM): 10 mL/min/kg

C=CC[C@@H]1/C=C(\C)C[C@H](C)C[C@H](OC)[C@H]2O[C@@](O)(C(=O)C(=O)N3CCCC[C@H]3C(=O)O[C@H](/C(C)=C/[C@@H]3CC[C@@H](O)[C@H](OC)C3)[C@H](C)[C@@H](O)CC1=O)[C@H](C)C[C@@H]2OC
plasma creatinine (male Wistar Kyoto rat; intraperitoneal, 0.5 mg/kg/day, day 28, at sacrifice): 29 ± 2 µmol/L

Cn1cc(Nc2nccc(-c3ccc4c(c3)CN(C3COC3)CC[C@H]4NC(=O)c3cn(C(C)(C)C)nn3)n2)cn1
CD3+ T cell count change (human, whole blood; 50 mg twice daily, day 7; baseline: pre-dose baseline): 15.4%

CC(C)C[C@@H]1NC(=O)CNC(=O)[C@H](CC(N)=O)NC(=O)[C@H](CCCNC(=N)N)NC(=O)[C@H]([C@@H](C)O)NC(=O)[C@@H]2CSSC[C@@H]3NC(=O)[C@H]([C@@H](C)O)NC(=O)CNC(=O)CNC(=O)[C@H](C(C)C)NC(=O)[C@@H]4CSSC[C@H](NC(=O)[C@H]([C@@H](C)O)NC(=O)[C@H](CSSC[C@H](NC(=O)[C@H](C(C)C)NC(=O)[C@@H]5CCCN5C1=O)C(=O)NCC(=O)N[C@@H](CCC(=O)O)C(=O)N[C@@H]([C@@H](C)O)C(=O)N4)NC(=O)CNC(=O)[C@@H]1CCCN1C(=O)[C@H]([C@@H](C)O)NC(=O)[C@H](CC(N)=O)NC3=O)C(=O)N[C@@H](CO)C(=O)N[C@@H](Cc1c[nH]c3ccccc13)C(=O)N1CCC[C@H]1C(=O)N[C@@H](C(C)C)C(=O)N2
remaining peptide (HPLC; ammonium bicarbonate; 180 µM, 7 days, pH 9.0, 25 °C, deamidation stability): 95 ± 0.5%

N#Cc1ccc2c(c1)[C@H]1CCCN(C(=O)c3ccc4[nH]cnc4c3)[C@H]1C2
SHBG level (human males; 40 mg, day 15): 42.8 nmol/L

CN(CCC#N)C(=O)c1ccc([C@H]2[C@@H](F)[C@@H](F)C[C@@H](F)[C@H]2F)cc1
hepatic clearance (liver microsome stability; mouse liver microsomes; 1 µM): 43 mL/min/kg

CC(C)c1nc(N(C)S(C)(=O)=O)nc(-c2ccc(F)cc2)c1/C=C/[C@@H](O)C[C@@H](O)CC(=O)O
AUCinf ratio (healthy human volunteers, plasma; oral, dose not given, BCRP probe substrate, with: momelotinib; baseline: compound alone): 273%

Cc1cc(Nc2ccc(S(F)(F)(F)(F)F)cc2)n2nc(C(C)(F)F)nc2n1
adverse event Stomatitis (Plasmodium falciparum malaria patients; oral, 250 mg): 0%

Cc1cn(C(=O)c2c(-c3c(Cl)cc(Cl)cc3Cl)noc2C(C)(C)F)c2cccc(/C=C/C(=O)O)c12
AUC(0-8h) (human patients; 125 mg bid, cycle 1 day 1): 21600 ng·h/mL

CC1(C)CC[C@]2(C(=O)O)CC[C@]3(C)C(=CC[C@@H]4[C@@]5(C)C[C@@H](O)[C@H](OC(=O)/C=C/c6ccc(O)cc6)C(C)(C)[C@@H]5CC[C@]43C)[C@@H]2C1 (relative stereo)
MRT(0-inf) (C57BL/6 mice, brain; intraperitoneal, 85 µmol/kg single dose): 3.59 h

CC(C(=O)Nc1ccc([C@H]2[C@@H](F)[C@@H](F)C[C@@H](F)[C@H]2F)cc1)n1cncn1 (stereo partly drawn)
hepatic clearance (cryopreserved human hepatocytes; 1 µM): 6.2 mL/min/kg

Cc1c(-c2ccc(N3CCc4cccc(C(=O)Nc5nc6ccccc6s5)c4C3)nc2C(=O)O)cnn1CC12CC3(C)CC(C)(C1)CC(OCCNCC[C@H](O)CO)(C3)C2
mean arterial pressure change (beagle dog, male, anaesthetised; intravenous infusion, 0.3 mg/kg/min, 15 min; baseline: vehicle): -5%

CCc1cc2ncc(CN3CCN(c4ccc(C(=O)NC)nc4)CC3)cc2[nH]c1=O
Lymphocytes count ratio (male rat, blood; oral, 25 mg/kg/day, 4 weeks; baseline: vehicle control): 0.64

COc1ccc2c(=O)n(C)c(-c3ccccc3)nc2c1
concentration (Sprague-Dawley rat, male, large intestine; oral, 30 mg/kg, 2 h): 500 ng/mL

Cn1ncnc1[C@H]1c2n[nH]c(=O)c3cc(F)cc(c23)N[C@@H]1c1ccc(F)cc1
AUC(0-τ) (human patients, plasma; oral, 400 µg/m2, median): 140 ng·h/mL

NC1(C(=O)N[C@@H](CCO)c2ccc(Cl)cc2)CCN(c2nc[nH]c3nccc2-3)CC1
incidence of Stomatitis (metastatic CRPC patients; dose not given, any grade, treatment-related, all doses, with: enzalutamide 160 mg daily): 6.7%

C[Si]1(C)O[Si](C)(C)O[Si](C)(C)O[Si](C)(C)O1
hepatic biotransformation rate constant (IVIVE from S9; rainbow trout (Oncorhynchus mykiss)): 0.037 h⁻¹ and 0.069 h⁻¹ and 0.038 h⁻¹

CCOc1c([C@H](C)n2nc(C)c3c(N)ncnc32)cc(Cl)c(F)c1[C@@H]1CNC(=O)C1
share of patients (item: ΔQTcF ≤ 30 ms; previously treated B-cell malignancy; oral, dose not given, all doses, overall population): 100%

O=C(CCCN1CCCN(c2ccc(Cl)cc2)CC1)c1ccc(F)cc1
time on bar (catalepsy, bar test; Sprague-Dawley rat; intraperitoneal, dose not given, 60 min): < 20 s

CN(C(=O)n1cnc(-c2cccnc2)c1)[C@H]1CC[C@H](O)CC1
tissue concentration (rat, hippocampus; oral, 10 mg/kg single dose, 24 h): 15.8 ± 0.7 ng/g

O=C(c1ccc(C2CCCCC2)cc1)N1CC(O)C1
hepatic clearance (hepatocyte stability; cryopreserved mouse hepatocytes; 1 µM): 79 mL/min/kg

O=c1ccc2c(OCCCCOc3ccccc3)c3ccoc3cc2o1
trough plasma concentration (HPLC-MS; Lewis rats, plasma; oral gavage, 50 mg/kg daily, day 28, 24 h): 310 ± 90 nM

CNC(=O)c1ccc(-c2cnc3ncc(Cc4ccc5ncccc5c4)n3n2)cc1F
patients with adverse event (item: Pruritus; gastric cancer patients; oral, 600 mg twice daily, expansion cohort, grade 3-4): 0%

Cn1nc2c(=O)n(C3CC3)cnc2c1[C@](O)(c1cnc(C(F)(F)F)c(Cl)c1)C(F)(F)F
AUC(0-96 h) (humanized SCID mice, blood; 3 mg/kg once daily, 6 days, infected): 90.8 µM·h

CC(C)(C(=O)N1CCOc2c(C#N)cncc2C1)C(F)F
subjects with TEAE (item: skin irritation; healthy humans, both sexes; oral, 40 mg single dose): 0%

COC(=O)N[C@@H](C)CNc1nccc(-c2cn(C(C)C)nc2-c2cc(Cl)cc(NS(C)(=O)=O)c2F)n1
AUCinf geometric mean ratio (human, plasma; oral, single dose, with: posaconazole; baseline: compound alone): 283%

CN1C(=O)[C@@H](NC(=O)c2nnc(Cc3ccccc3)[nH]2)COc2cccnc21
TEAE leading to permanent discontinuation (phase I multiple ascending dose; human, male and female; oral, 100 mg, 14 days): 0%

CC(C(=O)NCC(=O)NCC(CNC(=O)CNC(=O)C(C)N1CCN(CC(=O)[O-])CCN(CC(=O)[O-])CCN(CC(=O)[O-])CC1)(CNC(=O)CNC(=O)C(C)N1CCN(CC(=O)[O-])CCN(CC(=O)[O-])CCN(CC(=O)[O-])CC1)CNC(=O)CNC(=O)C(C)N1CCN(CC(=O)[O-])CCN(CC(=O)[O-])CCN(CC(=O)[O-])CC1)N1CCN(CC(=O)[O-])CCN(CC(=O)[O-])CCN(CC(=O)[O-])CC1.[Gd+3].[Gd+3].[Gd+3].[Gd+3] (stereo not drawn)
lanthanide concentration (cynomolgus monkey, cerebrum; dose not given, day 5): 0.023 ± 0.011 nmol/g

O=C(Nc1nc2cccc(-c3ccc(CN4CCS(=O)(=O)CC4)cc3)n2n1)C1CC1
treatment-emergent adverse events (item: headache; human rheumatoid arthritis patients; oral, 75 mg once daily, 4 weeks, regardless of relatedness): 4.5%

CCO[C@H]1CCN(Cc2c(OC)cc(C)c3[nH]ccc23)[C@H](c2ccc(C(=O)O)cc2)C1
incidence of cough (PNH patients, active haemolysis; oral, 25 mg, 4 weeks, treatment): 28.6%

C=CCN1CC(=O)N2[C@@H](Cc3ccc(O)cc3F)C(=O)N(Cc3cccc(N4CC(N5CCN(CC)CC5)C4)n3)C[C@@H]2N1C(=O)NCc1ccccc1
treatment-related decreased appetite (advanced solid tumour patients; oral, 20 mg twice daily, grade ≥3, dose-escalation): 0%

O=C(Nc1cnccc1Cl)N1CCN(Cc2ccc3c(c2)OC(F)(F)O3)CC1
hepatic enzyme increased (multiple ascending dose; young men; 10 mg, treatment-emergent adverse events): 0%

CC(C)C(=O)O[C@H]1[C@H](C)OC(=O)[C@@H]1Cc1ccccc1
KFoc (soil adsorption; tested soils; geometric mean): 118 mL/g

Cc1ccc([C@@H]2O[C@H](CO)[C@@H](O)[C@H](O)[C@H]2O)cc1Cc1ccc(-c2ccc(F)cc2)s1
urinary phosphate excretion change (item: inorganic phosphorus; Japanese type 2 diabetes patients; 25 mg, day 3, 24 h urine collection; baseline: baseline): -140 mg

CC(C)c1nc(N(C)S(C)(=O)=O)nc(-c2ccc(F)cc2)c1/C=C/[C@@H](O)C[C@@H](O)CC(=O)O
subjects with adverse event (item: nervous system disorders; healthy men; oral, dose not given, 8 days, treatment-emergent, crossover trial): 0%

Nc1ncc(-c2ccncc2)nc1Nc1ccc2[nH]ccc2c1
initial half-life (C57BL mice, male, plasma; intravenous, 5 mg/kg): 0.22 h

CC(C(=O)NCC(=O)NCC(CNC(=O)CNC(=O)C(C)N1CCN(CC(=O)[O-])CCN(CC(=O)[O-])CCN(CC(=O)[O-])CC1)(CNC(=O)CNC(=O)C(C)N1CCN(CC(=O)[O-])CCN(CC(=O)[O-])CCN(CC(=O)[O-])CC1)CNC(=O)CNC(=O)C(C)N1CCN(CC(=O)[O-])CCN(CC(=O)[O-])CCN(CC(=O)[O-])CC1)N1CCN(CC(=O)[O-])CCN(CC(=O)[O-])CCN(CC(=O)[O-])CC1.[Gd+3].[Gd+3].[Gd+3].[Gd+3] (stereo not drawn)
Gd concentration (ICP-MS; rat, femur diaphysis; intravenous, 0.6 mmol Gd/kg, 1 week): 0.5 nmol/g

COc1ccnc(C(=O)NCC(=O)O)c1O
KFoc (soil adsorption; tested soils; geometric mean): 388 mL/g

CCC(C)n1ncn(-c2ccc(N3CCN(c4ccc(OCC5COC(Cn6cncn6)(c6ccc(Cl)cc6Cl)O5)cc4)CC3)cc2)c1=O (stereo not drawn)
adverse event incidence (item: painful defaecation; healthy human participants; oral, 200 mg, compound alone cohort): 0%

C#C[C@]1(CO)O[C@@H](n2cnc3c(N)nc(F)nc32)C[C@@H]1O
Vz/F (human, plasma; oral, 400 mg, single dose, geometric mean): 1950 L

Cc1nc(-c2ccc(OCC(C)C)c(C#N)c2)sc1C(=O)O
body weight (KM mouse, chronic hyperuricaemia model; dose not given, day 5): 29.2 g and 26 g and 30.8 g and 28.2 g and 31.1 g and 30.5 g

Cc1cc(-c2nnc(N)nc2-c2ccc(F)cc2)cc(Cl)n1
patients with treatment-related adverse events (item: Fatigue; human phase Ia/Ib colorectal cancer, immunotherapy-naive; oral, dose not given): 36%

O=C(Cc1cccnc1)Nc1ccc(C2CCCCC2)cc1
hepatic clearance (dog liver microsomes; 1 µM): 25 mL/min/kg

C[C@@H](N)C1CCN(S(=O)(=O)c2cccc3cnccc23)CC1
participants with photophobia (healthy volunteers; 150 mg, fasted): 0%
